Measured values of several laboratories.
± marks the error that the study gave.
Organism: HIV-1

CC(=O)Nc1ccn(C2OC(COC(C)=O)C3CC=CCC32)c(=O)n1 (mixture of isomers)
EC90 (viral replication; human PBM cells, LAI): > 100000 nM

Cc1cc(/C=C/C#N)cc(C)c1Oc1nc(NC2CCN(Cc3ccc(S(N)(=O)=O)cc3)CC2)nc2ccccc12
EC50 (viral replication, luciferase reporter; TZM-bl, NL4-3 wild type): 8.44 ± 3.17 nM

Nc1ccn(C2OC(CO)C3CC=CCC32)c(=O)n1 (mixture of isomers)
EC90 (viral replication; human PBM cells, LAI): > 100000 nM

COc1cc2nc(NC3CCN(Cc4ccc(S(N)(=O)=O)cc4)CC3)nc(Oc3c(C)cc(C#N)cc3C)c2cc1OC
EC50 (viral replication, luciferase reporter; TZM-bl, NL4-3 wild type): 9.62 ± 3.15 nM

COc1ccc(S(=O)(=O)O)cc1N=Nc1c(S(=O)(=O)O)cc2cc(NCc3nc(CNc4cc(C)c(N=Nc5cc(S(=O)(=O)O)cc6cc(S(=O)(=O)O)cc(O)c56)cc4OC)nc(Nc4ccccc4)n3)ccc2c1O
IC50 (cell-cell fusion; H9/HIV-1 IIIB and MT2 cells): 5840 nM

COc1ccc(-n2c(SCCF)nnc2[C@H](Cc2ccccc2)NC(=O)Cc2c(C)[nH]c3ccccc23)cc1
selectivity index (MT-4, wild type; baseline: CC50 over EC50): 20

Cc1cc(/C=C/C#N)cc(C)c1Oc1nc(NC2CCN(Cc3ccc(S(C)(=O)=O)cc3)CC2)nc2ccccc12
EC50 (viral replication, luciferase reporter; TZM-bl, NL4-3 wild type): 22.5 ± 4.05 nM

COc1ccc(-n2c(SCc3cccnc3)nnc2[C@H](Cc2ccccc2)NC(=O)Cc2c(C)[nH]c3ccccc23)cc1
selectivity index (MT-4, wild type; baseline: CC50 over EC50): 9

CC(=O)NCCN(CC(=O)NCCN(CC(=O)NCCN(CC(=O)NCCC(N)=O)C(=O)C[C@@H](N)CCCNC(=N)N)C(=O)C[C@@H](N)CCCCN)C(=O)C[C@@H](N)Cc1ccccc1
selectivity index (PBMC, LAI; baseline: CC50 over EC50): > 4.5

COc1ccc2c(c1)OCCCC=CCCCCN(CC(O)C(Cc1ccccc1)NC(=O)OC1COC3OCCC13)S2(=O)=O (mixture of isomers)
IC50 (viral cytopathic effect, MTT; MT-2, LAI): 4 nM

Cc1cc(C#N)cc(C)c1Oc1nc(NC2CCN(Cc3ccccn3)CC2)nc2ccccc12
EC50 (viral replication, luciferase reporter; TZM-bl, NL4-3 wild type): 16.9 ± 5.32 nM

CC(=O)OCC1OC(n2cc(C)c(=O)[nH]c2=O)C2CC=CCC12 (mixture of isomers)
EC90 (viral replication; human PBM cells, LAI): > 100000 nM

Cc1cc(C#N)cc(C)c1Oc1nc(NC2CCN(Cc3ccncc3)CC2)nc2ccccc12
EC50 (viral replication, luciferase reporter; TZM-bl, NL4-3 wild type): 2.04 ± 0.71 nM

NCCCC[C@H](NC(=O)[C@H](CC(N)=O)NC(=O)[C@H](CCCCNC(=O)[C@H](Cc1ccc(B(O)O)cc1)NC(=O)[C@H](Cc1ccc(O)cc1)NC(=O)[C@@H](N)Cc1ccc(B(O)O)cc1)NC(=O)[C@H](Cc1ccc(B(O)O)cc1)NC(=O)[C@H](Cc1ccc(O)cc1)NC(=O)[C@@H](N)Cc1ccc(B(O)O)cc1)C(=O)N[C@@H](CO)C(=O)N[C@@H](Cc1ccc(O)cc1)C(N)=O
IC50 (viral replication; U87-CD4/CXCR4, NL4-3): ~5000 nM

CC(=O)NCCN(CC(=O)NCCN(CC(=O)NCCN(CC(=O)NCCC(N)=O)C(=O)C[C@@H](N)CCCNC(=N)N)C(=O)C[C@@H](N)Cc1ccccc1)C(=O)C[C@@H](N)Cc1ccccc1
selectivity index (PBMC, LAI; baseline: CC50 over EC50): > 8

Cc1cc(C#N)cc(C)c1Oc1nc(NC2CCN(Cc3ccc(S(N)(=O)=O)cc3)CC2)nc2ccccc12
EC50 (viral replication, luciferase reporter; TZM-bl, NL4-3 wild type): 1.62 ± 0.39 nM

COc1cccc2c(Oc3c(C(F)(F)F)ccn(Cc4n[nH]c(=O)n4C)c3=O)cc(C)nc12
selectivity index (MT4, wild type; baseline: CC50 over EC50): < 1

COc1cc2nc(NC3CCN(Cc4ccc(S(C)(=O)=O)cc4)CC3)nc(Oc3c(C)cc(C#N)cc3C)c2cc1OC
EC50 (viral replication, luciferase reporter; TZM-bl, NL4-3 wild type): 7.98 ± 2.66 nM

Nc1nc(Cl)nc2c1ncn2C1OC(CO)C2CC=CCC21 (mixture of isomers)
EC90 (viral replication; human PBM cells, LAI): > 100000 nM

CC(=O)N[C@H](CCCNC(=N)N)C(=O)N[C@H](CCCNC(=N)N)C(=O)N[C@H](CCCNC(=N)N)C(=O)N[C@H](CCCNC(=N)N)C(=O)N[C@H](CCCNC(=N)N)C(=O)N[C@H](CCCNC(=N)N)C(=O)N[C@H](CCCNC(=N)N)C(=O)N[C@H](CCCNC(=N)N)C(=O)N[C@H](CCCNC(=N)N)C(N)=O
inhibition (viral replication, refers to: p24; MT-2, NL4-3; concentration not given): > 95%

CC(=O)N[C@@H](CC(C)C)C(=O)N[C@@H](CS)C(=O)N[C@@H](CC(=O)O)C(=O)N[C@@H](CS)C(=O)N1CCC[C@H]1C(=O)N[C@@H](CC(N)=O)C(=O)NCC(=O)N1CCC[C@H]1C(=O)N[C@@H](Cc1c[nH]c2ccccc12)C(=O)N[C@H](C(=O)N[C@@H](Cc1c[nH]c2ccccc12)C(=O)N[C@H](C(=O)N1CCC[C@H]1C(=O)N[C@@H](C)C(=O)N[C@@H](Cc1ccccc1)C(=O)N[C@@H](CS)C(=O)N[C@@H](CCC(N)=O)C(=O)N[C@@H](C)C(=O)N[C@H](C(=O)NCC(=O)O)C(C)C)C(C)C)C(C)C
inhibition (viral replication; CEMx174 SEAP reporter, NL4-3; 10 µM): 86%

Cc1cc(C#N)cc(C)c1Oc1nc(NC2CCN(Cc3ccc(C#N)cc3)CC2)nc2ccccc12
EC50 (viral replication, luciferase reporter; TZM-bl, NL4-3 wild type): 11.4 ± 3.62 nM

COc1ccc(-n2c(SCc3ccc(S(N)(=O)=O)cc3)nnc2[C@H](Cc2ccccc2)NC(=O)Cc2c(C)[nH]c3ccccc23)cc1
selectivity index (MT-4, wild type; baseline: CC50 over EC50): > 76

CC(=O)NCCN(CC(=O)NCCN(CC(=O)NCCN(CC(=O)NCCC(N)=O)C(=O)C[C@@H](N)CCCNC(=N)N)C(=O)C[C@@H](N)CCCNC(=N)N)C(=O)C[C@@H](N)Cc1ccccc1
selectivity index (PBMC, LAI; baseline: CC50 over EC50): > 17
